Assay results collected from several papers.
± marks the error that the study gave.
Chain of UniProt P20309 (whole entry, looked up): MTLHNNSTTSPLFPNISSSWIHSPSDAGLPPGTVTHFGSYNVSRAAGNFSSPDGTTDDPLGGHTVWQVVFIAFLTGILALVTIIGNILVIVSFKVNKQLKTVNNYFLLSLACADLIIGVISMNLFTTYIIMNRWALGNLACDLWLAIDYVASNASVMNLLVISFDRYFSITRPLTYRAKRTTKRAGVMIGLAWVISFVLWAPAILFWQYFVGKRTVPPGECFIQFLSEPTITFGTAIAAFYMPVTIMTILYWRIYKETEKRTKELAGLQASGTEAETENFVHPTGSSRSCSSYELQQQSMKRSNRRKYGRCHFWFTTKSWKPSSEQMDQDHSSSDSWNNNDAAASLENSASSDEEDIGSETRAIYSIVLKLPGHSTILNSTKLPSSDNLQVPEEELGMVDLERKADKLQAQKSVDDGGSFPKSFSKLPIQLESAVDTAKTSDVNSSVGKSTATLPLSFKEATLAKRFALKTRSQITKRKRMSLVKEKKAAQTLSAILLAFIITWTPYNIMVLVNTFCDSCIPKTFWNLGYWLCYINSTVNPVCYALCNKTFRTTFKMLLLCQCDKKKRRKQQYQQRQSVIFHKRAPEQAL
Chain of UniProt Q969V1 (whole entry, looked up): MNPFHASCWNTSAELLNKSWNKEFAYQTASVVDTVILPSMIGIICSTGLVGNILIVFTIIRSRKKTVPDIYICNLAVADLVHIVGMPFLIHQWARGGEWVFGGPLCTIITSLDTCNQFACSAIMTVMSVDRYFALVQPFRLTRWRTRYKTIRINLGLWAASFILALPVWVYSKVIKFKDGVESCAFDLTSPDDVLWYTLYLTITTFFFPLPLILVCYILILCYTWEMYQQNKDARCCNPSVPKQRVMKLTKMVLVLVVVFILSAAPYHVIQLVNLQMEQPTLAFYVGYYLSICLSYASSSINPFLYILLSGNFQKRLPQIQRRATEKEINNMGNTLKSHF
Chain of UniProt O15111 (whole entry, looked up): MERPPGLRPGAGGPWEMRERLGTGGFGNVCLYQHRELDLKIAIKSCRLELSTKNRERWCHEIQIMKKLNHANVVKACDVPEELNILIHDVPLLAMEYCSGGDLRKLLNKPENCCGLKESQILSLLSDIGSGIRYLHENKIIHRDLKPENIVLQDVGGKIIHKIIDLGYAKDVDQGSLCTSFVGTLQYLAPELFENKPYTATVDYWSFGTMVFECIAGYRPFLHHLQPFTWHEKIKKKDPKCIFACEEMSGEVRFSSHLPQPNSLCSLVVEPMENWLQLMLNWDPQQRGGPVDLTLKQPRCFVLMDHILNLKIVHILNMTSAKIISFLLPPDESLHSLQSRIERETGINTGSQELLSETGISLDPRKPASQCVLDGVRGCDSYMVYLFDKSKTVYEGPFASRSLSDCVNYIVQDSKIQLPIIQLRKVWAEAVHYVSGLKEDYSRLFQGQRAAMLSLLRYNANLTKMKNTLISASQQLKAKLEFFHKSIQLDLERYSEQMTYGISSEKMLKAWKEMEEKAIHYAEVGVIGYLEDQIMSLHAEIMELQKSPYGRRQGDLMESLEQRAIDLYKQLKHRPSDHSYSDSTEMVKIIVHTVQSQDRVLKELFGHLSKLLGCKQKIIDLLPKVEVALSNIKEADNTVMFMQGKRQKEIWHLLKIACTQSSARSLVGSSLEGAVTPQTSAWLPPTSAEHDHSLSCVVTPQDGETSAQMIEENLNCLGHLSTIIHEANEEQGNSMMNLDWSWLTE
Chain of UniProt P13798 (whole entry, looked up): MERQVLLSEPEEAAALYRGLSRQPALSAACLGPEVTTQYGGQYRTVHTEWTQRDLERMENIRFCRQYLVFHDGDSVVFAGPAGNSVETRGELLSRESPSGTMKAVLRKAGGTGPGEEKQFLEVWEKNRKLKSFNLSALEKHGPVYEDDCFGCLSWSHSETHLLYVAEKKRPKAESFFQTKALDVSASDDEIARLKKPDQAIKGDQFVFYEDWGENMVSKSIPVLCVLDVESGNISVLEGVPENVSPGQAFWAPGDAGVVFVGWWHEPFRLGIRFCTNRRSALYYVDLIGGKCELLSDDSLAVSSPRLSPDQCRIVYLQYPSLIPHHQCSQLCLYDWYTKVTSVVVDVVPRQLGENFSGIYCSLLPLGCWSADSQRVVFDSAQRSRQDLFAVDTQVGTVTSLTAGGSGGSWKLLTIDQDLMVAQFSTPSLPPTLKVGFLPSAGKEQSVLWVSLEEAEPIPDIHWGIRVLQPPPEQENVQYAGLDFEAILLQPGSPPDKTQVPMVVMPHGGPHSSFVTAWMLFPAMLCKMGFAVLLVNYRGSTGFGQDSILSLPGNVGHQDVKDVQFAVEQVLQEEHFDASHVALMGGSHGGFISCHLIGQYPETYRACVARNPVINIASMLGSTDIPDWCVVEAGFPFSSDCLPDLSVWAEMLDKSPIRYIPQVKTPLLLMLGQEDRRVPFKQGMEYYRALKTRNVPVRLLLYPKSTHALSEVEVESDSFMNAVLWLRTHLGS
Chain of UniProt Q15722 (whole entry, looked up): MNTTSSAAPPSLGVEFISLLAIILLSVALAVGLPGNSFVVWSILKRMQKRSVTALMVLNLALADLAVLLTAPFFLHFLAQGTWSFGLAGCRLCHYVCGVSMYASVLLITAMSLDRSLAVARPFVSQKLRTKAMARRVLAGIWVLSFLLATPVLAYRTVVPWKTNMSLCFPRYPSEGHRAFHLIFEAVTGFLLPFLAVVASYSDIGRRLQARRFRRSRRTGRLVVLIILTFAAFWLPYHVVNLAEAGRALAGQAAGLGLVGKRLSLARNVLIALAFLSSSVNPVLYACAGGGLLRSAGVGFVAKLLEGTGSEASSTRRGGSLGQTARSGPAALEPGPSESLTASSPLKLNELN

SMILES | target or system | test | system | setting | how to read | quantity | value
C[C@H]1CN(c2n[nH]c3nc(N[C@H]4CC[C@H](NS(=O)(=O)CCC(F)(F)F)CC4)ncc23)CCO1 | Inhibitor of nuclear factor kappa-B kinase subunit alpha (CHUK, Homo sapiens, UniProt O15111) | inhibitor, Kinobeads competition profiling |  | 0.8 µM | baseline: vehicle | relative abundance | 1.09
COc1cc2c(Oc3ccc4[nH]c(C)cc4c3F)ccnc2cc1OCC1(N)CC1 |  |  | paediatric recurrent refractory sarcoma | 10 mg |  | grade 1 or 2 Thrombocytopenia | 50%
Cc1ccccc1NC(=O)Nc1ccc(CC(=O)N[C@@H](CCCCNC(=O)/C=C/c2cccnc2)C(=O)N[C@@H](CCCC(=O)O)C(=O)NC2(C(=O)NCCOCCOCCOCCOCC(=O)N[C@@H](CCCCNC(=S)Nc3ccc(CCCN(CCN4CCN(CP(=O)(O)O)CCN(CP(=O)(O)O)CC4)CC(=O)O)cc3)C(N)=O)CCCCC2)cc1 [gallium-68 labelled] |  |  | mouse, kidney | intravenous, 2 h post-injection |  | tissue uptake | 11.1 ± 2.7 %ID/g
O=c1cccc(O)c(O)c1O | HepDES19 |  |  |  |  | CC50 | 100 µM
C1=C(c2ccc(CN3CCCCC3)cc2)N2CCN=C2c2ccccc21 | Huh-7-ACE2 |  |  | 40 (unit not given) |  | CC50 | 5.8 µM
COc1ccc2c(c1)N(CCCN(C)C)c1ccccc1S2 | African green monkey cells |  |  | 5 days |  | CC50 | 14.1 µM
C[C@@H]1CS/C(=N\NC(=O)C(=O)[C@H](NC(=O)C2CCCCCC2)C2CCOCC2)N1C | Huh-7-ACE2 |  |  | 40 (unit not given) |  | CC50 | > 2.5 µM
CN1CCN(c2cc(-c3ccncc3)c(-c3ccc4ccccc4c3)nn2)CC1 | Melanin-concentrating hormone receptor 2 (MCHR2, Homo sapiens, UniProt Q969V1) | antagonist, FLIPR |  | 10 µM |  | inhibition | 28.3%
CN(C)CCn1c(C(=O)N2CCN(c3ccccc3Cl)CC2)c(C(c2ccc(O)cc2)c2ccc(O)cc2)c2ccccc21 | Huh-7-ACE2 |  |  | 40 (unit not given) |  | CC50 | > 2.5 µM
CNC(=O)c1cc(C)ccc1OCCc1ccc(Br)cc1 | HepG2 |  | galactose medium | 3 (unit not given) |  | CC50 | 21 ± 11 µM
CC[C@H](C)[C@H](NC(=O)[C@H](Cc1ccccc1)NC(=O)[C@H](CCC(=O)O)NC(=O)[C@H](CCCNC(=N)N)NC(=O)[C@H](C)NC(=O)[C@H](C)NC(=O)[C@H](CCC(N)=O)NC(=O)[C@H](CCC(=O)O)NC(=O)[C@H](CCC(=O)O)NC(=O)[C@H](CC(C)C)NC(=O)[C@H](Cc1ccc(O)cc1)NC(=O)[C@H](CO)NC(=O)[C@H](CO)NC(=O)[C@@H](NC(=O)[C@H](CC(=O)O)NC(=O)[C@H](CO)NC(=O)[C@@H](NC(=O)[C@H](Cc1ccccc1)NC(=O)[C@@H](NC(=O)CNC(=O)[C@H](CCC(=O)O)NC(=O)[C@H](C)NC(=O)CCc1c[nH]cn1)[C@@H](C)O)[C@@H](C)O)C(C)C)C(=O)N[C@@H](C)C(=O)N[C@@H](Cc1c[nH]c2ccccc12)C(=O)N[C@@H](CC(C)C)C(=O)N[C@H](C(=O)N[C@@H](CCCNC(=N)N)C(=O)NCC(=O)N[C@@H](CCCNC(=N)N)C(=O)N[C@@H](CCCCNC(=O)COCCOCCNC(=O)COCCOCCNC(=O)CC[C@H](NC(=O)CCCCCCCCCCCCCCCCC(=O)O)C(=O)O)C(=O)NCC(=O)NCC(=O)N[C@@H](CO)C(=O)N[C@@H](CCCCNc1c(NCCCCCN(O)C(=O)CCC(=O)NCCCCCN(O)C(=O)CCC(=O)NCCCCCN(O)C(C)=O)c(=O)c1=O)C(=O)O)C(C)C [zirconium-89 labelled] |  |  | rat, stomach | iv, 3 nmol/kg, 72 h, ex vivo |  | tissue uptake | 0.22 %ID/g
CC[C@@H](C(=O)[C@@H](C)[C@@H](O)[C@H](C)CCc1ccc(C)c(O)c1C(=O)O)[C@H]1O[C@](CC)([C@H]2CC[C@](O)(CC)[C@H](C)O2)C[C@@H]1C | African green monkey cells |  |  | 5 days |  | CC50 | 5.37 µM
COc1ccc2cc1Oc1ccc(cc1)C[C@H]1c3cc(c(OC)cc3CCN1C)Oc1c(OC)c(OC)cc3c1[C@H](C2)N(C)CC3 | Huh-7-ACE2 |  |  | 40 (unit not given) |  | CC50 | 1.1 µM
CC(C)C[C@@H]1NC(=O)[C@@H](NC(=O)OCc2ccccc2)Cc2cn(nn2)CCCNC(=O)CC[C@@H](C=O)NC1=O | HG23 norovirus replicon cells | crystal violet staining |  | 48 h |  | CC50 | > 100 µM
N=C(N)NCCC[C@H](NC(=O)[C@@H](Cc1ccccc1)NC(=O)[C@H](Cc1c[nH]cn1)NC(=O)CCCc1ccccc1)C(=O)N[C@@H](Cc1c[nH]c2ccccc12)C(=O)NCC(=O)N[C@@H](CCCCNC(=O)CCCCCNC(=O)CN1CCN(CC(=O)O)CCN(CC(=O)O)CCN(CC(=O)O)CC1)C(N)=O [actinium-225 labelled] |  | five-compartment model fit | SCID mice, A-375 and A-375/MC1R xenografts |  |  | tumour reverse transfer rate constant | 0.0008 h⁻¹
O=C(NN1C(=O)C2C3C=CC(C4CC34)C2C1=O)c1ccc(C(F)(F)F)cc1 (stereo not drawn) | African green monkey cells |  |  | 3 (unit not given) |  | CC50 | > 106 µM
OC(CCCN1CCc2c(c3cc(F)ccc3n2-c2ccc(F)cc2)C1)c1ccc(F)cc1 (stereo not drawn) | African green monkey cells |  |  | 5 days |  | CC50 | 6.92 µM
CC(C)(C)NCc1ccc(Nc2ccnc3cc(Cl)ccc23)cc1O | Huh-7-ACE2 |  |  | 40 (unit not given) |  | CC50 | > 2.5 µM
CNC(=O)c1cc(-c2ccoc2)ccc1OCCc1cccc(F)c1 | HepG2 |  | galactose medium | 3 (unit not given) |  | CC50 | > 100 µM
CNC(=O)[C@@]12C[C@@H]1[C@@H](n1cnc3c(NC)nc(C#Cc4ccc(Cl)s4)nc31)[C@H](O)[C@@H]2O | Vero 76 | cytotoxicity, neutral red |  |  |  | CC50 | > 100 µM
NC(=O)c1cc(F)ccc1OCCc1cccc(F)c1 | HepG2 |  | galactose medium | 3 (unit not given) |  | CC50 | > 100 µM
CCOC(=O)C1=C(CN2CCC[C@@H]2C(=O)Nc2cccc(B(O)O)c2)NC(c2nccs2)=N[C@H]1c1ccc(F)cc1Br | HepDES19 | MTS |  | 3 days |  | CC50 | 29.8 µM
O=C(Nc1cc(F)c(F)c(F)c1)c1ccc(F)c(S(=O)(=O)N2CCC(O)CC2)c1 | HepDES19 |  |  |  |  | CC50 | 23.4 ± 7 µM

SMILES | target or system | test | system | setting | how to read | quantity | value
NC(=O)c1cc(-c2ccsc2)cc(F)c1OCCc1cccc(F)c1 | HepG2 |  | galactose medium | 3 (unit not given) |  | CC50 | 24 ± 7 µM
Cc1cc(O[C@@H](CCC(F)(F)F)c2ccc(C(=O)NCCC(=O)O)cc2)cc(C)c1-c1ccc(C(C)(C)C)cc1 | African green monkey cells |  |  | 5 days |  | CC50 | 10.4 µM
N=C(N)NCCC[C@@H]1NC(=O)[C@H](CCCCNC(=O)c2ccc(CNC34CNCCNCC(N)(CNCCNC3)CNCCNC4)cc2)NC(=O)[C@@H](Cc2ccc(O)cc2)NC(=O)[C@H](CC(=O)O)NC(=O)CNC1=O [copper-64 labelled] |  | ex vivo biodistribution | male athymic nude mouse, PC-3 tumour, blood | 7.4 MBq, 48 h |  | tissue uptake | 0.4 ± 0.07 %ID/g
COc1ccc(CCN2CCC(Nc3nc4ccccc4n3Cc3ccc(F)cc3)CC2)cc1 | Huh-7-ACE2 |  |  | 40 (unit not given) |  | CC50 | > 2.5 µM
C[C@@H](O)[C@@H](CO)NC(=O)[C@@H](CCCNC(=N)N)NC(=O)[C@@H]1CCCN1C(=O)[C@@H]1CSSC[C@H](NC(=O)[C@H](Cc2ccccc2)NC(=O)CN2CCN(CC(=O)O)CCN(CC(=O)O)CCN(CC(=O)O)CC2)C(=O)N[C@@H](Cc2ccc(O)cc2)C(=O)N[C@@H](Cc2ccccc2)C(=O)N[C@@H](CCC(N)=O)C(=O)N[C@@H](CC(N)=O)C(=O)N1 [gallium-68 labelled] |  |  | human serum | 2 h, 37 °C |  | radiochemical purity | > 99%
COc1cc2c3cc1Oc1cc(ccc1O)CC1c4c(cc(OC)c(O)c4Oc4ccc(cc4)CC3N(C)CC2)CCN1C (stereo not drawn) | African green monkey cells |  |  | 5 days |  | CC50 | 11.5 µM
O=C(c1ccc(Cl)cc1)N1CCN2C(=O)N(OC(=O)N3CCOc4ccccc43)C(=O)C2C1 (stereo not drawn) | Acylamino-acid-releasing enzyme (APEH, Homo sapiens, UniProt P13798) | MS-based ABPP | SW-620 conditioned medium | 10 µM, 1 h, 37 °C | baseline: compound over DMSO, lower = more inhibition | median protein ratio | 1.13
Fc1ccc(-c2ccc(CN3CCN(c4cccc5ccoc45)CC3)[nH]2)cc1 | Huh-7-ACE2 |  |  | 40 (unit not given) |  | CC50 | > 2.5 µM
CN(C(=O)CN(CCO)CC(=O)N(C)C(C)(C)Cc1ccccc1)C(C)(C)Cc1ccccc1 | African green monkey cells |  |  | 5 days |  | CC50 | 26.3 µM
COc1ccc(CCOc2ccc(-c3ccsc3)cc2C(N)=O)cc1F | HepG2 |  |  | 3 (unit not given), human |  | CC50 | 21 ± 4 µM
N#Cc1ccc2c(c1)N(CCCN1CCC(O)CC1)c1ccccc1S2 | African green monkey cells |  |  | 5 days |  | CC50 | 12.7 µM
CC[C@H](C)[C@@H]1NC(=O)[C@@H]2CCCN2C(=O)[C@H](CC(C)C)NC(=O)[C@H](CC(C)C)NC(=O)CNC(=O)[C@@H](NC(=O)[C@@H](NC(=O)[C@H](CC(=O)O)NC(=O)CNC(=O)[C@@H](NC(=O)[C@H](C)NC(=O)CNC(=O)[C@H](CCCCN)NC(=O)[C@H](CC(C)C)NC(=O)[C@H](CC(C)C)NC(=O)[C@H](CCCCN)NC(=O)CNC(=O)[C@@H](NC(=O)[C@@H](N)CC(C)C)C(C)C)C(C)C)C(C)C)CSSC[C@@H](C(=O)O)NC1=O |  | RNA-seq, item: Rnase6 | mouse, traumatic brain injury model, frontal cortex and hippocampus | dose not given | baseline: TBI alone | log2 fold change | -2.51
O=C1CCc2ccc(OCCCCN3CCN(c4cccc(Cl)c4Cl)CC3)cc2N1 | African green monkey cells |  |  | 5 days |  | CC50 | 11.4 µM
O=C(Nc1cnccc1Cl)N1CCN(Cc2ccc3c(c2)OC(F)(F)O3)CC1 | Leukotriene B4 receptor 1 (LTB4R, Homo sapiens, UniProt Q15722) | radioligand binding |  | 10 µM, together with: [3H]LTB4 |  | inhibition of binding | 1%
O=C(NC1COC1)c1cc(-c2ccoc2)ccc1OCCc1cccc(F)c1 | HepG2 |  | galactose medium | 3 (unit not given) |  | CC50 | 40 ± 7 µM
COc1cc(Nc2ncc(F)c(Nc3ccc4c(n3)NC(=O)C(C)(C)O4)n2)cc(OC)c1OC | Muscarinic acetylcholine receptor M3 (CHRM3, Homo sapiens, UniProt P20309) |  |  |  |  | IC50 | > 10 µM
CCCCCCCCCCCCCCCCOCCCOP(=O)(O)CO[C@H](CO)Cn1ccc(N)nc1=O | African green monkey cells |  |  | 3 (unit not given) |  | CC50 | > 10 µM
CCNC/C=C\CNCCCCNCCCCNC/C=C\CNCC | Huh-7-ACE2 |  |  | 40 (unit not given) |  | CC50 | > 2.5 µM
O=C(NC1CC1)c1cc(-c2ccoc2)ccc1OCCc1cccc(F)c1 | HepG2 |  | galactose medium | 3 (unit not given) |  | CC50 | 26 ± 5 µM
C=C(C)[C@]12C[C@@H](C)[C@]34OC5(CCCCCCC[C@@H](C)[C@@H]6[C@@H]3[C@]3(O[C@]6(C)OC3=O)[C@H](O)[C@@]3(CO)O[C@H]3[C@H]4[C@H]1O5)O2 | MT4 | CellTiter-Glo |  |  |  | CC50 | > 38.5 µM
CNC(=O)c1cc(C)ccc1OCCc1ccc(C2CC2)cc1 | HepG2 |  | galactose medium | 3 (unit not given) |  | CC50 | 17 ± 5.6 µM
CC(C)[C@H](NC(=O)c1ccccc1NC(=O)c1ccccn1)C(=O)N[C@H](CO)C(C)C | 293T | MTT |  | 24 h |  | CC50 | > 250 µM
